Assay results of several laboratories.
Protocols differ between the studies behind these lines. ± marks the error that the study gave.
Method: steady-state kinetics
B1: iodotyrosine deiodinase (Haliscomenobacter hydrossis, UniProt F4KU78); chain MKQKPAFIPYAGAQFEPEEMLSKSAEYYQFMDHRRTVREFSNRAIPLEVIENIVMTASTAPSGAHKQPWTFVVVSDPQIKAKIRQAAEKEEFESYNGRMSNEWLEDLQPFGTDWHKPFLEIAPYLIVVFRKAYDVLPDGTQRKNYYVQESVGIACGFLLAAIHQAGLVALTHTPSPMNFLQKILQRPENERPFLLVPVGYPAEGAMVPDLQRKDKAAVMVVY
B2: anthranilate synthase (Streptomyces venezuelae, UniProt O30589); chain MDLSRLLDPSCPPFALLRRRTPGRDHDTVEVLIGRVHEAERLAELPVGPLPALALVPFRQIRERGFDVRDDGTPLSVLVAEETHTLPLAEALDRLPAHDVTVEDGGFDVSDEEYAGIVRRVIDEEIGSGEGANFVIRRTYTGEIPGFGRADALALFRRLLAGERGAYWTFVVHTGDRTLVGASPEVHVRMSGGTVVMNPISGTYRYPAGAAPTAEGLLAFLADRKETEELSMVVDEELKMMCTVGDMGGVVIGPRLKEMAHLAHTEYELRGRSSLDVREVLRETMFAATVTGSPVQNACRVIERHEVGGRGYYAGALALLGTDENGAQSLDSPILIRTADIAADGHLRVPVGATLVRHSDPAGEVAETHAKAAGVLTALGVREGRPAGGPAPAPTALADDPRVRAALDARRADLAPFWLRMQVRSAELSGHALVIDAEDTFTAMLAHVLRSSGLDVSVLRYDEPGLRELALAHEGPVVLGPGPGNPSDAADPKMRFLRALTADLVRDHRHGLLGVCLGHELIAAELGLEIVRKRTPFQGAQMRIDLFGQERTVGFYNSFTARCDERTATELALHRIEVSRDAETGEVHALRGPGFAGVQFHPESVLTTDGAALTASLLAGVLV
B3: protein (UniProt M4ZR24); chain MNEIGTTWAEGTSERVIRLLTDKRAGRPMSGPDIEGLVKDFTAGSVPDYQMASWLATVACAGLSAEELTALTAAYVDSGERLSLSSSRRPVADKHSTGGVGDKTTLVVAPVVAACGIGVGKVTGRGLGFMGGTVDKLESIPGLDLELSGSALSAQVADLGLAVTGQSPSLVPGDRMTYALRDVTGTVDSIPLIAASIMSKNTKGIAVRCNSIVLDVKYGDGAVLPDRAVATELARTMLELGRSFDLPTTAVISSMEQPLGYAVGNGLEVREAIIALSGTYVEDLTELAITISALMISTADSAVDHDRARDRVREVLSDGSALRMFRAFVARQGGDVGFVDDPSRLETAPHRLVVTATEAGHVARIAARRIGEAALRVGAGRLVYGAPIDHGAGIVLSRRIGDSVAEGEPLATLHGSDYDQLESLADVVRGCFDISERPPGRPDVIVDVLRQGDAG
B4: protein Y93D (Thermus thermophilus, UniProt Q5SKR5); chain MSAPKPFVIGIAGGTASGKTTLAQALARTLGERVALLPMDHYYKDLGHLPLEERLRVNYDHPDAFDLALYLEHAQALLRGLPVEMPVYDFRADTRSPRRTPVRPAPVVILEGILVLYPKELRDLMDLKVFVDADADERFIRRLKRDVLERGRSLEGVVAQYLEQVKPMHLHFVEPTKRYADVIVPRGGQNPVALEMLAAKALARLARMGAA
B5: Mj-MAT W387F/Y323W (Methanocaldococcus jannaschii, UniProt Q58605); chain MRNIIVKKLDVEPIEERPTEIVERKGLGHPDSICDGIAESVSRALCKMYMEKFGTILHHNTDQVELVGGHAYPKFGGGVMVSPIYILLSGRATMEILDKEKNEVIKLPVGTTAVKAAKEYLKKVLRNVDVDKDVIIDCRIGQGSMDLVDVFERQKNEVPLANDTSFGVGYAPLSTTERLVLETERFLNSDELKNEIPAVGEDIKVMGLREGKKITLTIAMAVVDRYVKNIEEYKEVIEKVRKKVEDLAKKIADGYEVEIHINTADDYERESVYLTVTGTSAEMGDDGSVGRGNRVNGLITPFRPMSMEAASGKNPVNHVGKIWNILANLIANDIAKLEGVKECYVRILSQIGKPINEPKALDIEIITEDSYDIKDIEPKAKEIANKFLDNIMEVQKMIVEGKVTTF
B6: enzyme (Comamonas testosteroni, UniProt B7WQT1); chain MMTHEENELLCRVEGDAPMGRLMRRHWTPICLVEEVGEPDGTPVKARAFGEDLVVFRDSEGRVGVMDEYCPHRRASLVYGRNEEGGLRCLYHGWKMDVDGNVLEMASEPAASGMVDKVKHTAYPTQEWAGMVWAYMGPKETMPEFLPPAWAPTADTRVSIAKVLLPCNWAQILEGAIDSAHSSSLHSSDMVPARVDGAKATDKTWLRPSTDKAPRMQVQRTGYGFRYAALRRPLSNAAENDYVRSTVFVAPATALIPPNNLYNVANINVPMDDTNTAFYFIAWGHPSQTPETETWRKFLRQTVGVDLDQNYRPLRNEANKFWQDRNAMKAGNFTGITGFPNQDVAMWLTMGPIADRTHDRLGASDLAIVEFRKQMLDAVKAFEQGAPAIGTGVEAATPTVCSFQAIVPKTTDWRTYDAHYVWLDGQDRPEFEPSYSVKS
B7: sacB S173A/S422A (Priestia megaterium, UniProt D5DC07); chain KGNDSKDFNNSYGISHITRDNMVKIPQQQNSDQFKVPAFDESTIKNIASAKGKNASGNTIDLDVWDSWPLQNADGTVATYHGYQIVFALAGDPKDSNDTSVYLFYKKAGDKSIDSWKNAGRVFKDSDKFVPNDPHLKNQTQEWAGSGTLTKDGKVRLFYTDYSGKQYGKQTLTTAQVNMSQPNDNTLKVDGVEDYKSIFDGDGKIYQTVQQFIDEGGYDTGDNHTLRDPHYIEDNGHKYLVFEANTGTEDGYQGEDSLYNRAYYGGNNPFFQSEKKKLLEGSNKEKASLANGALGIIELNDDYTLKKVMKPLITSNTVTDEIERANIFKKDGKWYLFTDSRGSKMTIDGIGQDDVYMLGYVSNTLTGKYKPLNDTGLVLHMDLDPNDKTFTYAHFAVPQTKGDNVVITSYMTNRGFYEDNHSTFAPSFLVNIDGSKTSVVKDRVLEQGQLTVDED
B8: ybiA (Escherichia coli, UniProt P30176); chain MPVRAQRIQHVMQDTIINFYSTSDDYGDFSNFAAWPIKVDGKTWPTSEHYFQAQKFLDEKYREEIRRVSSPMVAARMGRDRSKPLRKNWESVKEQVMRKALRAKFEQHAELRALLLATAPAKLVEHTENDAYWGDGGHGKGKNRLGYLLMELREQLAIEK
B9: pyc H216N (Rhizobium etli, UniProt Q2K340); chain MPISKILVANRSEIAIRVFRAANELGIKTVAIWAEEDKLALHRFKADESYQVGRGPHLARDLGPIESYLSIDEVIRVAKLSGADAIHPGYGLLSESPEFVDACNKAGIIFIGPKADTMRQLGNKVAARNLAISVGVPVVPATEPLPDDMAEVAKMAAAIGYPVMLKASWGGGGRGMRVIRSEADLAKEVTEAKREAMAAFGKDEVYLEKLVERARNVESQILGDTHGNVVHLFERDCSVQRRNQKVVERAPAPYLSEAQRQELAAYSLKIAGATNYIGAGTVEYLMDADTGKFYFIEVNPRIQVEHTVTEVVTGIDIVKAQIHILDGAAIGTPQSGVPNQEDIRLNGHALQCRVTTEDPEHNFIPDYGRITAYRSASGFGIRLDGGTSYSGAIITRYYDPLLVKVTAWAPNPLEAISRMDRALREFRIRGVATNLTFLEAIIGHPKFRDNSYTTRFIDTTPELFQQVKRQDRATKLLTYLADVTVNGHPEAKDRPKPLENAARPVVPYANGNGVKDGTKQLLDTLGPKKFGEWMRNEKRVLLTDTTMRDGHQSLLATRMRTYDIARIAGTYSHALPNLLSLECWGGATFDVSMRFLTEDPWERLALIREGAPNLLLQMLLRGANGVGYTNYPDNVVKYFVRQAAKGGIDLFRVFDCLNWVENMRVSMDAIAEENKLCEAAICYTGDILNSARPKYDLKYYTNLAVELEKAGAHIIAVKDMAGLLKPAAAKVLFKALREATGLPIHFHTHDTSGIAAATVLAAVEAGVDAVDAAMDALSGNTSQPCLGSIVEALSGSERDPGLDPAWIRRISFYWEAVRNQYAAFESDLKGPASEVYLHEMPGGQFTNLKEQARSLGLETRWHQVAQAYADANQMFGDIVKVTPSSKVVGDMALMMVSQDLTVADVVSPDREVSFPESVVSMLKGDLGQPPSGWPEALQKKALKGEKPYTVRPGSLLKEADLDAERKVIEKKLEREVSDFEFASYLMYPKVFTDFALASDTYGPVSVLPTPAYFYGLADGEELFADIEKGKTLVIVNQAVSATDSQGMVTVFFELNGQPRRIKVPDRAHGATGAAVRRKAEPGNAAHVGAPMPGVISRVFVSSGQAVNAGDVLVSIEAMKMETAIHAEKDGTIAEVLVKAGDQIDAKDLLAVYGG
B10: enzyme F187A (Thermococcus kodakarensis, UniProt Q5JID5); chain MLYVEILGNLPEMARDEVKAMLELGGGEIIGQDYLFLKVDAGEKAFPFLDRLGLAHEYGLLLVEADSVEELLQKAGEVEWPIKGAFKVDTETMANCRHDVLDLPRKLGAVIHAQGFRVNLSKPDTVVRVYCGERLYAGIRLRYFDPKDFEKRKAHHRPFFRPISLHPRVSRALVNLTKATREILDPAMGAGGILIEAGLLGLRVYGVDIRPEMVEGAETNLKHYGVRDYTLKLGDATRLEDLFPDKKFEAVATDPPYGTAATLAGRKRDELYRKALRSIYNVLEDGGRLAIAFPTDFNGKAEAEAVGFRTLGRYYQRVHKSLERYFYVFEK
Chain of UniProt P38999 (whole entry, looked up): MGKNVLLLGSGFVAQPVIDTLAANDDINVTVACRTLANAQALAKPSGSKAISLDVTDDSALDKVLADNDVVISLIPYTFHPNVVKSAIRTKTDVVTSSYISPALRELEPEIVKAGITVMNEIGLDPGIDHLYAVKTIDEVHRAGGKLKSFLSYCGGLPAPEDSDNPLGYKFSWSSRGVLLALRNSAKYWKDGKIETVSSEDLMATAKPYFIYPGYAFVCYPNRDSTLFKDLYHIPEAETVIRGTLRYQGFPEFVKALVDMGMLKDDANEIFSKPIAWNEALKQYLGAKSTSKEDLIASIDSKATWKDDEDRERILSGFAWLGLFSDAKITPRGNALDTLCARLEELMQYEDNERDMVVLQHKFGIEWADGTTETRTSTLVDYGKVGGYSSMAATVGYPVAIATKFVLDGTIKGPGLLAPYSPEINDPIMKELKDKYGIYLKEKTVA
Chain of UniProt P76342 (whole entry, looked up): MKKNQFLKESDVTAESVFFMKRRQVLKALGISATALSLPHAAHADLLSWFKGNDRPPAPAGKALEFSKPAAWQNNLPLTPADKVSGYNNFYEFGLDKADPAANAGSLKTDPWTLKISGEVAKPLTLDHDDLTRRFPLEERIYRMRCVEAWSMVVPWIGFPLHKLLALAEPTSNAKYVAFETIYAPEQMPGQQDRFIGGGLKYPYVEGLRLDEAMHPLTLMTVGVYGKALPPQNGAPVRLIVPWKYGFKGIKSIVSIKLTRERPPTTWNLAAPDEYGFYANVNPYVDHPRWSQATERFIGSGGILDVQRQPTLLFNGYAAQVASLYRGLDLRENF
Chain of UniProt O48715 (whole entry, looked up): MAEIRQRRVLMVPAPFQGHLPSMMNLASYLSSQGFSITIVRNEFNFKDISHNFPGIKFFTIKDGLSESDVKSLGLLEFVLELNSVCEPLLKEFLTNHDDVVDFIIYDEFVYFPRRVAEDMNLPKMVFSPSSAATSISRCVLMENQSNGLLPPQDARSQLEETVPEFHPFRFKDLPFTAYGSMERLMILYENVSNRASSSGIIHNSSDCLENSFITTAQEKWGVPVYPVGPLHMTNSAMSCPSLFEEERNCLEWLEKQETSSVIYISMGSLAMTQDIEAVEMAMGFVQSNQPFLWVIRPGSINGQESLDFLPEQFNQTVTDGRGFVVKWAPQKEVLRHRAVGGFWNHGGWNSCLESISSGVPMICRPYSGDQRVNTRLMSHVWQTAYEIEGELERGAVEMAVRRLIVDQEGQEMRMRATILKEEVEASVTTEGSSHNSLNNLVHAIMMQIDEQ
Chain of UniProt Q6ZQB6 (whole entry, looked up): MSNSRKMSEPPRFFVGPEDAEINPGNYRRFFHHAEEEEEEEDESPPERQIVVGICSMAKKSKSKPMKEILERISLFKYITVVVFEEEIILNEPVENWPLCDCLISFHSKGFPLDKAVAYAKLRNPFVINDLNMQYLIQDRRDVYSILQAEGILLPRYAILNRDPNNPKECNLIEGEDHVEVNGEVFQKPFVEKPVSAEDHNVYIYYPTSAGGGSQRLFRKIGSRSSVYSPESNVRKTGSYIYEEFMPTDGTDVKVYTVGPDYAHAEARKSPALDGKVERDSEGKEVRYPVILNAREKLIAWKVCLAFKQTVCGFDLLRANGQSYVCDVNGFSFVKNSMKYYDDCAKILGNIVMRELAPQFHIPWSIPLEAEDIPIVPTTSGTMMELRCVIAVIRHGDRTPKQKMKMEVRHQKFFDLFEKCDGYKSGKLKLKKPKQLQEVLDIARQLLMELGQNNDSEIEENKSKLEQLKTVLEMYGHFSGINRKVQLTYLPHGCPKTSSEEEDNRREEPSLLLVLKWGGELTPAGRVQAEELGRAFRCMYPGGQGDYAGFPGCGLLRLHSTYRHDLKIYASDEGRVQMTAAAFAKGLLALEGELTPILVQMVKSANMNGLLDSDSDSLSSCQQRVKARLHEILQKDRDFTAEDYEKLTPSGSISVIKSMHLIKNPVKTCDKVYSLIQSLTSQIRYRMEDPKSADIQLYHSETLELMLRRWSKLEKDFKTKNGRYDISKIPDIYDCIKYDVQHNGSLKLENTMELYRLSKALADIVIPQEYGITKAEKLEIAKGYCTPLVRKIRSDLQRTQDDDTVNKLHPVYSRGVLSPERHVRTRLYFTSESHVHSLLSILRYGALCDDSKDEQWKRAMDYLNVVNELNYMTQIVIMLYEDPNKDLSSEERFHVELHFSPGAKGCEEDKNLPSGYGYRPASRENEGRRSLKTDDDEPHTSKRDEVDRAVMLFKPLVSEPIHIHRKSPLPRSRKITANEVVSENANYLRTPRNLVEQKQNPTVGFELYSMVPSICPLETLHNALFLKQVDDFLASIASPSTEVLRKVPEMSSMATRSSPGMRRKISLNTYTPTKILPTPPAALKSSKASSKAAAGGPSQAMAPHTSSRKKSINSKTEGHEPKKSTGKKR
Chain of UniProt Q8QZR1 (whole entry, looked up): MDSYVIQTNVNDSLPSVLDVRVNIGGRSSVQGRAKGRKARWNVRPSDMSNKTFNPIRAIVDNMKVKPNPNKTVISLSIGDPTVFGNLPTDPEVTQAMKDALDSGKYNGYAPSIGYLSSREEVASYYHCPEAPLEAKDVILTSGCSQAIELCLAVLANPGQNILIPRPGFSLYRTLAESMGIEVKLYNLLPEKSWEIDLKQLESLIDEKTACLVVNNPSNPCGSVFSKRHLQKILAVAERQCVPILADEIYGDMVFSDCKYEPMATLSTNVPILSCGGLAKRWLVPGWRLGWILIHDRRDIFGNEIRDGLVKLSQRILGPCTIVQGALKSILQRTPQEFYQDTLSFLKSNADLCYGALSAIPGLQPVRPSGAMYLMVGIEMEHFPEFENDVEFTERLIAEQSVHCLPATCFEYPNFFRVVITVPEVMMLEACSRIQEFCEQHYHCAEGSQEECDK
Chain of UniProt P27306 (whole entry, looked up): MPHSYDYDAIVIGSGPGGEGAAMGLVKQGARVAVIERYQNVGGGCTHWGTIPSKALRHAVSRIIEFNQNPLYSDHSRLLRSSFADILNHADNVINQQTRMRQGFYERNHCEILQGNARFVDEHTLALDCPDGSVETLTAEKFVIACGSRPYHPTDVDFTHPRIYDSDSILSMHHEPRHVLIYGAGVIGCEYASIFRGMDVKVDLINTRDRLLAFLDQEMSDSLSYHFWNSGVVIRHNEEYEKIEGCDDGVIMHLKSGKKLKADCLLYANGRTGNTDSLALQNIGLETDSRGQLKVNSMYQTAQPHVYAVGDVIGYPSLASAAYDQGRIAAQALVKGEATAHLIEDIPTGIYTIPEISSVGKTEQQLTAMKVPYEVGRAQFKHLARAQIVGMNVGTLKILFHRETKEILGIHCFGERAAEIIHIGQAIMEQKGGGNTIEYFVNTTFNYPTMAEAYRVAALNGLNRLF

| Molecule | substrate | setting | kcat |
| --- | --- | --- | --- |
| MsrP (Escherichia coli, UniProt P76342) | C[S@+]([O-])CC[C@H](N)C(=O)O | pH 7, 30 °C, added: benzyl viologen 0.4 mM | 36 ± 3.6 s⁻¹ |
| B1 (iodotyrosine deiodinase) | Cc1cc(C[C@H](N)C(=O)O)cc(I)c1O | pH 7.4, 25 °C | 0.72 ± 0.1 s⁻¹ |
| Saccharopine reductase (Saccharomyces cerevisiae, UniProt P38999) | NC(=O)C1=CN([C@@H]2O[C@H](COP(=O)(O)OP(=O)(O)OC[C@H]3O[C@@H](n4cnc5c(N)ncnc54)[C@H](OP(=O)(O)O)[C@@H]3O)[C@@H](O)[C@H]2O)C=CC1 | pH 7, 25 °C, added: AASA, L-glutamate | 1.9 ± 0.1 s⁻¹ |
| B2 (anthranilate synthase) | NC(=O)CC[C@H](N)C(=O)O | pH 7.5, 30 °C, added: chorismate saturating; MgCl2 12.5 mM | 0.57 ± 0.02 s⁻¹ |
| B3 (protein) | Cc1cn([C@H]2C[C@H](O)[C@@H](CN)O2)c(=O)[nH]c1=O | phosphorolysis, single substrate, added: phosphate | 0.0517 ± 0.005 s⁻¹ |
| B4 (protein Y93D) | Nc1ccn([C@@H]2O[C@H](CO)[C@@H](O)[C@H]2O)c(=O)n1 | pH 7.2, 25 °C, KCl 100 mM, added: ATP 100–200 µM | 1.4 ± 0.6 s⁻¹ |
| B5 (Mj-MAT W387F/Y323W) | CSCC[C@H](N)C(=O)O | 55 °C, added: ATP 2.5 mM, methionine 0.05-1 mM | 1.62 ± 0.09 s⁻¹ |
| sthA (Escherichia coli, UniProt P27306) | NC(=O)c1ccc[n+]([C@@H]2O[C@H](COP(=O)(O)OP(=O)(O)OC[C@H]3O[C@@H](n4cnc5c(N)ncnc54)[C@H](O)[C@@H]3O)[C@@H](O)[C@H]2O)c1 | pH 7.5, 37 °C, NaCl 150 mM, added: thio-NADH 200 µM | 11 ± 2 s⁻¹ |
| B6 (enzyme) | O=C(O)c1ccccc1C(=O)O | pH 8, 25 °C, apparent | 2.1 ± 0.1 s⁻¹ |
| protein I23F/S203N/S29F (Manduca sexta, UniProt Q8I8Y1) | Oc1ccc(O)cc1 | pH 7 | 0.733 ± 0.045 s⁻¹ |
| B7 (sacB S173A/S422A) | OC[C@H]1O[C@@](CO)(O[C@H]2O[C@H](CO)[C@@H](O)[C@H](O)[C@H]2O)[C@@H](O)[C@@H]1O | pH 6.6 | 2.8 ± 0.1 s⁻¹ |
| B8 (ybiA) | Nc1nc(N[C@@H]2O[C@H](COP(=O)(O)O)[C@@H](O)[C@H]2O)c(N)c(=O)[nH]1 | pH 8, 22 °C, substrate not purified | 0.006 ± 0.0002 s⁻¹ |
| Ppip5k2 (Mus musculus, UniProt Q6ZQB6) | O=P(O)(O)O[C@@H]1[C@@H](OP(=O)(O)O)[C@H](OP(=O)(O)OP(=O)(O)O)[C@@H](OP(=O)(O)O)[C@H](OP(=O)(O)OP(=O)(O)O)[C@@H]1OP(=O)(O)O | pH 5, 37 °C | 0.095 s⁻¹ |
| B9 (pyc H216N) | Nc1ncnc2c1ncn2[C@@H]1O[C@H](COP(=O)(O)OP(=O)(O)OP(=O)(O)O)[C@@H](O)[C@H]1O | pH 7.8, 30 °C, no pyruvate, added: NaHCO3 20 mM, acetyl CoA 0.25 mM, Mg2+ 5 mM | 0.0117 ± 0.0007 s⁻¹ |
| enzyme (Arabidopsis thaliana, UniProt O48715) | O=c1ccn([C@@H]2O[C@H](CO[P@@](=O)(O)O[P@@](=O)(O)O[C@H]3O[C@H](CO)[C@@H](O)[C@H](O)[C@H]3O)[C@@H](O)[C@H]2O)c(=O)[nH]1 | pH 7.5, 25 °C | 0.00476 s⁻¹ |
| Tat (Mus musculus, UniProt Q8QZR1) | N[C@@H](Cc1ccccc1)C(=O)O | pH 7, 38 °C, 100 mM phosphate, added: 10 mM KGA; PLP | 15.3 ± 3.5 s⁻¹ |
| B10 (enzyme F187A) | C[S+](CC[C@H](N)C(=O)O)C[C@H]1O[C@@H](n2cnc3c(N)ncnc32)[C@H](O)[C@@H]1O | pH 7.5, 50 °C, apparent | 0.0035 ± 0.000333 s⁻¹ |

Repeated from above:
| Molecule | substrate | setting | kcat |
| --- | --- | --- | --- |
| B6 (enzyme) | O=C(O)c1ccccc1C(=O)O | pH 8, 25 °C, apparent | 2.1 ± 0.1 s⁻¹ |
| enzyme (Arabidopsis thaliana, UniProt O48715) | O=c1ccn([C@@H]2O[C@H](CO[P@@](=O)(O)O[P@@](=O)(O)O[C@H]3O[C@H](CO)[C@@H](O)[C@H](O)[C@H]3O)[C@@H](O)[C@H]2O)c(=O)[nH]1 | pH 7.5, 25 °C | 0.00476 s⁻¹ |
